# Measured values pooled from the literature.
# A part holds a random share of what one study measured. Several values in a cell are separate wells, animals, samples, runs or records.
# UniProt P22455, sequence (whole entry, looked up): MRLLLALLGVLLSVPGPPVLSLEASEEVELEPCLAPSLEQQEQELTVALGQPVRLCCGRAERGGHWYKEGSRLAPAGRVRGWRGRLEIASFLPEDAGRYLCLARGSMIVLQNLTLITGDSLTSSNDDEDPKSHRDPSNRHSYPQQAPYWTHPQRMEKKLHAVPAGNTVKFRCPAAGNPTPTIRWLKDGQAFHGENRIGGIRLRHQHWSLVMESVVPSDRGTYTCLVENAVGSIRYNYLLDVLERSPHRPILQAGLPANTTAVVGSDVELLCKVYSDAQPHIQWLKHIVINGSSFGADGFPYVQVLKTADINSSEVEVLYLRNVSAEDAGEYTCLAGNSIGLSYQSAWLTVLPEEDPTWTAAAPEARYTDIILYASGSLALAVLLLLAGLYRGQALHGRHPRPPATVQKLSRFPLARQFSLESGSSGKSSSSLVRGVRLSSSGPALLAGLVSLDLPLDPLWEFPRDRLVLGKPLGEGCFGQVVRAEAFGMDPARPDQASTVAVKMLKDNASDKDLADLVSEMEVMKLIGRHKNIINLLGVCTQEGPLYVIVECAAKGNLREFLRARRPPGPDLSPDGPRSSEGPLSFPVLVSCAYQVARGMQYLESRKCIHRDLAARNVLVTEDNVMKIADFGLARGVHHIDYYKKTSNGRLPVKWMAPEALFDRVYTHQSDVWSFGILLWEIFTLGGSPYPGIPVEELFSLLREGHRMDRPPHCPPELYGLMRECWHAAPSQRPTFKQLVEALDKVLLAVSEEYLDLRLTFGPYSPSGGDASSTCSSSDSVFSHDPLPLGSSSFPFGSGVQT
# UniProt P49840, sequence (whole entry, looked up): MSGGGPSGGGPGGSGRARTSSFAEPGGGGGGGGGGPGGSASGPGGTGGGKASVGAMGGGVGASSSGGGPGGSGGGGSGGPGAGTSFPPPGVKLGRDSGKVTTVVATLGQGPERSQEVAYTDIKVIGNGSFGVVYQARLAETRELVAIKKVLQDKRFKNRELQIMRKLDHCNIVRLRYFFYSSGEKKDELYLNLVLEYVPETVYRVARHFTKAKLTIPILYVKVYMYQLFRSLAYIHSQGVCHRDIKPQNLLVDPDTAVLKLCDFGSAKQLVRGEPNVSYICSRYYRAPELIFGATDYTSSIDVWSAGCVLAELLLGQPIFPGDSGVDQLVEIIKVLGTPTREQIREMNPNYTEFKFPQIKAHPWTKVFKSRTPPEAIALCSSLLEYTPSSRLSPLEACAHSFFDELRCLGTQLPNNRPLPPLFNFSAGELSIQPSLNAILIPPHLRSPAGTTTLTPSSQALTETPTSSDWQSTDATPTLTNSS
# UniProt Q9UPE1, sequence (whole entry, looked up): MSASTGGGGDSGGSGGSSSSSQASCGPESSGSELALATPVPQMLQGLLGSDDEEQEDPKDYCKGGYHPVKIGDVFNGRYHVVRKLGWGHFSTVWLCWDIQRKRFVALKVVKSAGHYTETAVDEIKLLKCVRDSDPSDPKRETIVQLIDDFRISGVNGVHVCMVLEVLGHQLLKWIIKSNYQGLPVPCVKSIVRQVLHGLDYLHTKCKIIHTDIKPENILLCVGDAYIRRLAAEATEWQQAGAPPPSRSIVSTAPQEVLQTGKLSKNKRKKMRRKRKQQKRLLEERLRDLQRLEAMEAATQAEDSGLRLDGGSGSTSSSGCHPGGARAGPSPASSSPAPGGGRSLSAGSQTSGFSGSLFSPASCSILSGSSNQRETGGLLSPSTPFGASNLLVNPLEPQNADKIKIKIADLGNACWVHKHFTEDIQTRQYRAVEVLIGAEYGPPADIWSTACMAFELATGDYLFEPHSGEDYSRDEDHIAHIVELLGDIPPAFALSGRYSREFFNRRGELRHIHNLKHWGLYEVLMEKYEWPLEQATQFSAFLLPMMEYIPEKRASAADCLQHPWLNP
# UniProt Q15746, sequence (whole entry, looked up): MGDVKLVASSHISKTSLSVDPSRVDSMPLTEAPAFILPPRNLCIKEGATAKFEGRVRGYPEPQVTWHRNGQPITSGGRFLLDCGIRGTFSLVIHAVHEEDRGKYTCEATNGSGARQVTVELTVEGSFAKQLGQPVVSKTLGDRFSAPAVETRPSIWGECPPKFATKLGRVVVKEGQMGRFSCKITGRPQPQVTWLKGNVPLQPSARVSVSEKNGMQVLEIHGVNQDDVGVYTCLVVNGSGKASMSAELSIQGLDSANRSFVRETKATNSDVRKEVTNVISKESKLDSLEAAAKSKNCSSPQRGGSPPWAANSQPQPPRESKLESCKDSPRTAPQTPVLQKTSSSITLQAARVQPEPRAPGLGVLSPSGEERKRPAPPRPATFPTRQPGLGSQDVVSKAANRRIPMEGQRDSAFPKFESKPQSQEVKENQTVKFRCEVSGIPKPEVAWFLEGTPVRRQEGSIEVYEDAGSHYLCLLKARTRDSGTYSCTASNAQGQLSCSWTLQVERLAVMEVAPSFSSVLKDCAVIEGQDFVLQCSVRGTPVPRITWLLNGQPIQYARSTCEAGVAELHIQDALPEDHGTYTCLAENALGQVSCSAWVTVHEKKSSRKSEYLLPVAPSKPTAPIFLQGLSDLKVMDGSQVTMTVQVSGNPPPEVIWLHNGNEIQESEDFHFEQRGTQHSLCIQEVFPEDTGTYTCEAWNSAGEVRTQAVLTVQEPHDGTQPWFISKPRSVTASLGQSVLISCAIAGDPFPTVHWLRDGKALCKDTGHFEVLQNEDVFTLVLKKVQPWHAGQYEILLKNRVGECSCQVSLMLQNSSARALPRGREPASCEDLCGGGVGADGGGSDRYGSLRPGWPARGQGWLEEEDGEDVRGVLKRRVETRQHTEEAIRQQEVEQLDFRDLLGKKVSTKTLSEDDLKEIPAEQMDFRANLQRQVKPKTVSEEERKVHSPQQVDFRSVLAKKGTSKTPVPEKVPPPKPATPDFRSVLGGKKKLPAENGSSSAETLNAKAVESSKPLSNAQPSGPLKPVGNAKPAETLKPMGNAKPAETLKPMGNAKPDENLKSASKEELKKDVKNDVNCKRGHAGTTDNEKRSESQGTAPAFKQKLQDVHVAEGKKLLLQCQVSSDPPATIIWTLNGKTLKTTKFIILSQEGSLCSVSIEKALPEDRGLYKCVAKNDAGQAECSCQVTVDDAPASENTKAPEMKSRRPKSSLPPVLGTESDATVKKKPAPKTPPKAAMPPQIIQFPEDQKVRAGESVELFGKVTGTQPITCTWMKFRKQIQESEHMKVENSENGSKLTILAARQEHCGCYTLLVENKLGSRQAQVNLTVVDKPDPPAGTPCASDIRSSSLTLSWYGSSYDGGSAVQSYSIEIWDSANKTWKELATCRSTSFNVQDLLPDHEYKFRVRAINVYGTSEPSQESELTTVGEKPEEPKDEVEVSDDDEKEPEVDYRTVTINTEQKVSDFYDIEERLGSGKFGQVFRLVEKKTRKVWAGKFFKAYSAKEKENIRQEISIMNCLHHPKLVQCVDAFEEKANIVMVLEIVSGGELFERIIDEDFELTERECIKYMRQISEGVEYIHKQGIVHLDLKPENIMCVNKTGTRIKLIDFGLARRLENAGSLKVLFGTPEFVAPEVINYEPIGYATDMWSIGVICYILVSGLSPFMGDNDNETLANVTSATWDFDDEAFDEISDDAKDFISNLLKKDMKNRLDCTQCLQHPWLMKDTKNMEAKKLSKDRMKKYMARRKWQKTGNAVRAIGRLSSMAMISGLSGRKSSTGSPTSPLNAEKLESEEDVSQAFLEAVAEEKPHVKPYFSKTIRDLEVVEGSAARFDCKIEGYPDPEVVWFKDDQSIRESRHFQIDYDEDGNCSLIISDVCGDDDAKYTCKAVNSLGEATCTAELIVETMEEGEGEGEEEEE
# UniProt Q13177, sequence (whole entry, looked up): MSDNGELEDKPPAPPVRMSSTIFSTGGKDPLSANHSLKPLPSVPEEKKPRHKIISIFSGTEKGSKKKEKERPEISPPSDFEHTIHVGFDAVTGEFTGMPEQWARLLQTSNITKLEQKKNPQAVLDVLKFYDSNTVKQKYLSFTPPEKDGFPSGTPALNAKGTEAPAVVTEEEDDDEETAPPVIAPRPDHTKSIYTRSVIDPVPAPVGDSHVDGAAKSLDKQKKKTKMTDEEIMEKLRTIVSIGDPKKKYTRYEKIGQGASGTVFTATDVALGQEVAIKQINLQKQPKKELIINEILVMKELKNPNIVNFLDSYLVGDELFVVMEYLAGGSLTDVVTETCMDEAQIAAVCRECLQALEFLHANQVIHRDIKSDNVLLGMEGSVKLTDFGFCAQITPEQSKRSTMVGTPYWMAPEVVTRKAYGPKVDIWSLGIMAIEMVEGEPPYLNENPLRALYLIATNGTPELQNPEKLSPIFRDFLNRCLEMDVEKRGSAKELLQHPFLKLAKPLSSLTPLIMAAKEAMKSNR
# UniProt O60285, sequence (whole entry, looked up): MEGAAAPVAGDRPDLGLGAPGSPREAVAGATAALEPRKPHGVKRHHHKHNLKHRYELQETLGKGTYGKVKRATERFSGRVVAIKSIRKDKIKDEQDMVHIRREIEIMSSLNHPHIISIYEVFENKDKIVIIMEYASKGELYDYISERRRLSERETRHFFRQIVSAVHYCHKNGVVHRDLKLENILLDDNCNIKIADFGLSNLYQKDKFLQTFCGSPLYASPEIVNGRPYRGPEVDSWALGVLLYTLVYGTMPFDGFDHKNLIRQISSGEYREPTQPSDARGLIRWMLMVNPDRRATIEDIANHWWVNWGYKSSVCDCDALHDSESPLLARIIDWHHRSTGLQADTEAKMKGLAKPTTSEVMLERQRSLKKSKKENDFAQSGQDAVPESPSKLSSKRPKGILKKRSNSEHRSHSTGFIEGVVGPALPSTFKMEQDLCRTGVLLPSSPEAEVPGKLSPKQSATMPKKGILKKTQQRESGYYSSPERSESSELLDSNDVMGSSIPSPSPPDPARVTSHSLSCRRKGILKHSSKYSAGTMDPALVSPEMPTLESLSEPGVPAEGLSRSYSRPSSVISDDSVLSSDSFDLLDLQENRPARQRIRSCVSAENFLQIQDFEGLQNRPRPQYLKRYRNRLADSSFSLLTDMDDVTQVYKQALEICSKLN

# Block 1 — SMILES: O=c1cc(N2CCOCC2)oc2c(-c3ccccc3)cccc12; read-out: enzyme activity; mode: inhibitor; tested at: 0.5 µM; relative to: control
target,remaining activity [%]
"FGFR4 (Homo sapiens, UniProt P22455)",104
"CSF1R (Homo sapiens, UniProt P07333)",98.3
"GRK6 (Homo sapiens, UniProt P43250)",93
"PAK2 (Homo sapiens, UniProt Q13177)",103
"EPHA7 (Homo sapiens, UniProt Q15375)",102
"PIM2 (Homo sapiens, UniProt Q9P1W9)",106
"GRK2 (Homo sapiens, UniProt P25098)",106
"SRPK3 (Homo sapiens, UniProt Q9UPE1)",95.5
"CSK (Homo sapiens, UniProt P41240)",88.1
"SGK1 (Homo sapiens, UniProt O00141)",101
"PRKCE (Homo sapiens, UniProt Q02156)",102
"RPS6KA1 (Homo sapiens, UniProt Q15418)",97.3
"GSK3A (Homo sapiens, UniProt P49840)",93.5
"BMX (Homo sapiens, UniProt P51813)",96.9
"RPS6KB1 (Homo sapiens, UniProt P23443)",101
"Aurora kinase C (AURKC, Homo sapiens, UniProt Q9UQB9)",97
"PRKCG (Homo sapiens, UniProt P05129)",94.2
"MYLK (Homo sapiens, UniProt Q15746)",97.8
"FLT3 (Homo sapiens, UniProt P36888)",95.6
"NUAK1 (Homo sapiens, UniProt O60285)",92.5
"EPHB2 (Homo sapiens, UniProt P29323)",99.8

# Block 2 — host: human; medium: microsomes or S9; tested at: 2 µM; time: 0.5 h
Compound,remaining compound [%]
Cc1ccc(N2C(=O)c3n[nH]c(C)c3C2c2ccco2)cc1 (stereo not shown),69.5
O=C(Nc1ccc2c(c1)OCO2)C1CCN(Cc2nnc(-c3ccc(Br)s3)o2)CC1,27.2
Cc1ccc(C2(c3ccccc3)C=C(c3ccccc3)N(S(=O)(=O)c3ccc(C)cc3)O2)cc1 (stereo not shown),0.575
CC1(C)Oc2ccc(C#N)cc2[C@@H](NC(=O)c2ccc(F)cc2)[C@@H]1O,98.7
CC(C)C1(C)SC(NC2CC3CCC2C3)=NC1=O (stereo not shown),95.6
Oc1cccc(-c2nc3c(s2)Cc2ccccc2-3)c1,1.47
Cc1cc2c(cc3c(NCc4ccccc4F)nnc(C)n32)s1,20.1
CCOC(=O)Cc1cc(=O)c2c(=O)n(-c3ccccc3)[nH]c2[nH]1,91
O=c1[nH]ncn2c1cc1cc(Br)ccc12,72.3
CC(C)n1[nH]c(=O)c2c(-c3ccc[nH]c3=O)c3c(nc21)[nH]c(=O)n3C,25.3
COc1cc2c(cc1O)[C@@H]1Cc3ccc(O)c(OC)c3CN1CC2,> 99.9
c1ccc2c(c1)OCC(c1noc(CCc3c[nH]nn3)n1)O2 (stereo not shown),94.7
CCOC(=O)c1ccc(NC(=O)N(Cc2ccc3c(c2)OCO3)C2CCN(CC)CC2)cc1,90.6
Cn1c(N)c(C(=O)Cn2cc(C(F)(F)F)cc(Cl)c2=O)c(=O)n(C)c1=O,65.5

# Block 3 — cell line: mouse MPNST tumor cells; method: high-content immunofluorescence imaging; measured: nuclear SOX9; tested at: 10 µM; time: 12 h; notes: mean of 2 replicates; relative to: DMSO control; direction: higher = more nuclear SOX9
Compound,nuclear SOX9 intensity
CNc1ncnc2c1ncn2C1OC(CO)C(O)C1O (stereo not shown),111 % of DMSO
CC(=O)[C@H]1CC[C@H]2[C@@H]3C[C@H](C)C4=CC(=O)CC[C@]4(C)[C@H]3[C@@H](O)C[C@]12C,84.9 % of DMSO
O=[N+]([O-])c1ccc(CSc2ncnc3c2ncn3[C@@H]2O[C@H](CO)[C@@H](O)[C@H]2O)cc1,102 % of DMSO
OC(CCN1CCCCC1)(c1ccccc1)C1CCCCC1 (stereo not shown),111 % of DMSO and 123 % of DMSO
O=C(O)c1cc(-c2ccc(C3CCNCC3)cc2)c2ccc(-c3ccc(C(F)(F)F)cc3)cc2c1,163 % of DMSO
CCNC1(C(N)=O)CCN(c2ncnc3c2nc(-c2ccccc2Cl)n3-c2ccc(Cl)cc2)CC1,162 % of DMSO
c1ccc2c(CC3=NCCN3)cccc2c1,99.3 % of DMSO
Cc1cccc(C)c1OCC(=O)N[C@@H](Cc1ccccc1)[C@@H](O)C[C@H](Cc1ccccc1)NC(=O)[C@H](C(C)C)N1CCCNC1=O,100 % of DMSO
N#Cc1ccc2[nH]cc(CCCCN3CCN(c4ccc5oc(C(N)=O)cc5c4)CC3)c2c1,174 % of DMSO
CC(=Nc1ccccc1N)c1c(C)cc(=O)n(O)c1O,99.2 % of DMSO
O=C1c2c(O)ccc(O)c2C(=O)c2c(NCCNCCO)ccc(NCCNCCO)c21,102 % of DMSO

# Block 4 — method: CellTiter-Glo; tested at: 1 µM; relative to: DMSO
# Cell line: normal-adjacent epithelium patient-derived organoids sample F
SMILES,viability
Cc1cc2c(-c3ccco3)cnc(N[C@H]3CCN(C)C[C@@H]3C(=O)NC3CCCCC3)c2[nH]c1=O,77.2%
Cl.Cl.NC1(c2ccc(-c3nc4ccn5c(=O)[nH]nc5c4cc3-c3ccccc3)cc2)CCC1,123% and 65%
Cc1ncc(-c2cc(Cl)ccc2F)cc1-n1c(=O)n(CC(N)=O)c2ccccc21,164% and 152%
COc1cccc(NC(=O)c2nc3scc(CN(C)Cc4ccccc4)c3c(=O)[nH]2)c1,91.7% and 106%
CCOc1cn(-c2ccc(F)cc2C)nc1C(=O)Nc1ccc(Oc2ccnc3cc(OC)c(OC)cc23)c(F)c1,111% and 96.7%
O=C(Nc1cccnn1)N1CC(CC=Cc2cncc(Oc3ccc(C(F)(F)F)cn3)n2)C1,115% and 101%

# Repeated from above (block 1):
target,remaining activity [%]
"EPHA7 (Homo sapiens, UniProt Q15375)",102
"PIM2 (Homo sapiens, UniProt Q9P1W9)",106
"GRK2 (Homo sapiens, UniProt P25098)",106
"SRPK3 (Homo sapiens, UniProt Q9UPE1)",95.5
"CSK (Homo sapiens, UniProt P41240)",88.1
"SGK1 (Homo sapiens, UniProt O00141)",101
